Published values collected from several papers.
A part holds a random share of what one study measured.
Chain of UniProt P49759 (whole entry, looked up): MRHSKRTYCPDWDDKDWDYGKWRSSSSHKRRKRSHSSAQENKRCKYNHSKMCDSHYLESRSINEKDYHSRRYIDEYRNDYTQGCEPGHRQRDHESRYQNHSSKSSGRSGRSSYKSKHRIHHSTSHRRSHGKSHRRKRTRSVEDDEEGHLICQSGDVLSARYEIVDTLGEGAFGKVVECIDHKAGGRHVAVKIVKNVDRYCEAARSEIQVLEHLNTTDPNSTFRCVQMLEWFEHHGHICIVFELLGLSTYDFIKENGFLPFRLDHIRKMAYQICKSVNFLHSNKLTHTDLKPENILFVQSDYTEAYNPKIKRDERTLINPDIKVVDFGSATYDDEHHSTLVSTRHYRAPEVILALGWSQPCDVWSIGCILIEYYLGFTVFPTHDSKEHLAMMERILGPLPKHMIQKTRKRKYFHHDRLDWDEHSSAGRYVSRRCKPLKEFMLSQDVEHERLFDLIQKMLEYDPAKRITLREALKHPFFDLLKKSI
Chain of UniProt Q13188 (whole entry, looked up): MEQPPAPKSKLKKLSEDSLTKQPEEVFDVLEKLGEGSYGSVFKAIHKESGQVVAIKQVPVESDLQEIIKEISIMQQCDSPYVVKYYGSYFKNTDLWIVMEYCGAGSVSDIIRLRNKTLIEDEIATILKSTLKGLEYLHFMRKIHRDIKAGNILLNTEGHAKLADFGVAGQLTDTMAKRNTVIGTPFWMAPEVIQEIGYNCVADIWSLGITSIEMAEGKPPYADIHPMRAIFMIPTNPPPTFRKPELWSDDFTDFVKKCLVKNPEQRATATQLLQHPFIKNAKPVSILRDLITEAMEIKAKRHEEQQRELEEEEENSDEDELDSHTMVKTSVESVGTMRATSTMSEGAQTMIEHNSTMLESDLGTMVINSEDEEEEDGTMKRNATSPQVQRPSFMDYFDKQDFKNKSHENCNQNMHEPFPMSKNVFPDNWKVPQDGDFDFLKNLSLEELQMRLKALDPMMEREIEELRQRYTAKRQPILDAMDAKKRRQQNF
Chain of UniProt Q9UPZ9 (whole entry, looked up): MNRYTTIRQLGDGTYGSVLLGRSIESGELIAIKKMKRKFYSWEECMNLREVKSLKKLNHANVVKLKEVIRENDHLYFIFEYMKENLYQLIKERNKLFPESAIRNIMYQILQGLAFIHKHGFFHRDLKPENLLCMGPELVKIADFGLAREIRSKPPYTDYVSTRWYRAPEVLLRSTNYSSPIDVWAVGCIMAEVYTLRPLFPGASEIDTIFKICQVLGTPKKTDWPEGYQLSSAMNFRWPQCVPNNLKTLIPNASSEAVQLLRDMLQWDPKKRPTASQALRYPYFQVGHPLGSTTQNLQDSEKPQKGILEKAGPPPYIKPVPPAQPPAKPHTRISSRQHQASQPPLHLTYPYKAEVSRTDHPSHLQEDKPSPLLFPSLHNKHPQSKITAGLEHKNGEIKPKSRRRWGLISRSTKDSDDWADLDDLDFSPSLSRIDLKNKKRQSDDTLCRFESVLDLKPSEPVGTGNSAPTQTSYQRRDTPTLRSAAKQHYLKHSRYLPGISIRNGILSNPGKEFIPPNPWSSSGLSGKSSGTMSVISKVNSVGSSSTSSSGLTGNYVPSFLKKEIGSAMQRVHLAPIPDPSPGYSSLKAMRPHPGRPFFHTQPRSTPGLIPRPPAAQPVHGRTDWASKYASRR
Chain of UniProt P36897 (whole entry, looked up): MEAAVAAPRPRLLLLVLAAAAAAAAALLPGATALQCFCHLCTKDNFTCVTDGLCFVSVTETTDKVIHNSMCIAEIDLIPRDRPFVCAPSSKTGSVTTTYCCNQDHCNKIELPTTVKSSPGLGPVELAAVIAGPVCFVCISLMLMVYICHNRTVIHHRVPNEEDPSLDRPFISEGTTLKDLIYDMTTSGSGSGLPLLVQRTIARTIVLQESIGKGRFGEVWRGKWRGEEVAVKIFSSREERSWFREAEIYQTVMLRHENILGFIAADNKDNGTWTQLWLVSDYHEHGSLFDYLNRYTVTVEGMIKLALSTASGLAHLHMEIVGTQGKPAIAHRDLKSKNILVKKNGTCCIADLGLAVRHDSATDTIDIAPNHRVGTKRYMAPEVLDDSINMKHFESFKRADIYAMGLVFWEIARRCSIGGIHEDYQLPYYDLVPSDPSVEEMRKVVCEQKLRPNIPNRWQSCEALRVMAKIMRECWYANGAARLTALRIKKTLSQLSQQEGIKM
Chain of UniProt O00750 (whole entry, looked up): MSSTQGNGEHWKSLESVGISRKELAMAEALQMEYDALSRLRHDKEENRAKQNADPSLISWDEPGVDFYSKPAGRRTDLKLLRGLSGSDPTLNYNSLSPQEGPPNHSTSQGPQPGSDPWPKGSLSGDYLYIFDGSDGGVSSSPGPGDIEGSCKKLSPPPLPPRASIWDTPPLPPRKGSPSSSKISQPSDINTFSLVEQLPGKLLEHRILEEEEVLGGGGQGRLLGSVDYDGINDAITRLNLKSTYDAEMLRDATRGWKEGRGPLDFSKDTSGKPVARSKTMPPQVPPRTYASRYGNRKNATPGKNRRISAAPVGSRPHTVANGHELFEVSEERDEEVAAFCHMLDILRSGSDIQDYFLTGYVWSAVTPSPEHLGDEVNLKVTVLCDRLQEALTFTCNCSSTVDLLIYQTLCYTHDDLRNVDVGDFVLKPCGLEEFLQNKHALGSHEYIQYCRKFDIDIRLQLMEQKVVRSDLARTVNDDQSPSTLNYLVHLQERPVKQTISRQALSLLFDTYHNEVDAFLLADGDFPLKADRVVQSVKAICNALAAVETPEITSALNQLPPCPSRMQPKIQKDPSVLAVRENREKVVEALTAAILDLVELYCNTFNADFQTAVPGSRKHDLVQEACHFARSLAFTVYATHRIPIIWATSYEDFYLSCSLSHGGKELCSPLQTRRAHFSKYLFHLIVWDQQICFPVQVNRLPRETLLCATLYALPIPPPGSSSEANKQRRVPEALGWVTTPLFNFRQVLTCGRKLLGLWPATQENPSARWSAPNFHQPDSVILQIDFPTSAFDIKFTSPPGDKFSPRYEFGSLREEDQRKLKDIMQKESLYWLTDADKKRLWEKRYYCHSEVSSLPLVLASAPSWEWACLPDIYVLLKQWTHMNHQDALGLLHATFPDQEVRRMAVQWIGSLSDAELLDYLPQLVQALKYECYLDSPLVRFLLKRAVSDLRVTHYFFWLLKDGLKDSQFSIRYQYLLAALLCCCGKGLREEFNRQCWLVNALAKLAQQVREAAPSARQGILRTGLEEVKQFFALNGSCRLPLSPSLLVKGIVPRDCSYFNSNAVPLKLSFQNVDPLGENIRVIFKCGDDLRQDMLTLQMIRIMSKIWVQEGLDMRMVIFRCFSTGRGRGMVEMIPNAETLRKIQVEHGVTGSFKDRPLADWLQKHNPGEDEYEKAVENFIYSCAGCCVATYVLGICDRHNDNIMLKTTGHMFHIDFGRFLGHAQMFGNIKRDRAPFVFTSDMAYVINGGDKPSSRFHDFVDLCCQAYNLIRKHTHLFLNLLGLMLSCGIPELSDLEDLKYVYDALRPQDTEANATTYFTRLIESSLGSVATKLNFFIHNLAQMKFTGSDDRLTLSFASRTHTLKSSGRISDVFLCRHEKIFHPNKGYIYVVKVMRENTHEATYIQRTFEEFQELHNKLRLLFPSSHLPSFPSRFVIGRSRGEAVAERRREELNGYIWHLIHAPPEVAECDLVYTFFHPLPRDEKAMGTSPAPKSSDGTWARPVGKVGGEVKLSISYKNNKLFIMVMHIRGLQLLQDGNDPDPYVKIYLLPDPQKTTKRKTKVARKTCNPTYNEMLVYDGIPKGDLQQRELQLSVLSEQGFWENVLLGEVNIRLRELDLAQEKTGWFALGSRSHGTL

Study 1
SMILES: Cc1noc([C@H]2C[C@@H](c3ccc(C(F)(F)F)cc3)CN(C(=O)N3CCS(=O)(=O)C3)C2)n1
Technique: competition with immobilised ligand
Concentration: 1 µM
| target | test | remaining binding |
| --- | --- | --- |
| CILK1 (Homo sapiens, UniProt Q9UPZ9) | binding | 62% |
| CLK1 (Homo sapiens, UniProt P49759) | cell-free assay | 100% |
| PIK3C2B (Homo sapiens, UniProt O00750) | cell-free assay | 66% |
| Insulin receptor (INSR, Homo sapiens, UniProt P06213) | cell-free assay | 85% |
| TGFBR1 (Homo sapiens, UniProt P36897) | cell-free assay | 100% |
| STK3 (Homo sapiens, UniProt Q13188) | cell-free assay | 100% |

Study 2
Cell line: mouse MPNST tumor cells
Technique: high-content nuclear imaging
Refers to: cell number
Concentration: 10 µM
Time: 12 h
Notes: mean of 2 replicates
Baseline: plate mean
Reading: higher = more cells
| SMILES | nuclei count [z-score] |
| --- | --- |
| CC[C@H]1OC(=O)[C@H](C)[C@@H](O[C@H]2C[C@@](C)(OC)[C@@H](O)[C@H](C)O2)[C@H](C)[C@@H](O[C@@H]2O[C@H](C)C[C@H](N(C)C)[C@H]2O)[C@](C)(O)C[C@@H](C)C(=O)[C@H](C)[C@@H](O)[C@]1(C)O | 1.35 |
| Cc1cc2sc(NC(=O)Cc3ccccc3)nc2cc1Cl | 3.04 |
| CN(C)CCOC(=O)C(c1ccccc1)C1(O)CCCC1 (centres unmarked) | -0.244 |
| CC1(C)C(=O)N(CCN2CCC(C(=O)c3ccc(F)cc3)CC2)c2ccccc21 | 0.168 |
| CCCCNc1ccc(C(=O)OCCOCCOCCOCCOCCOCCOCCOCCOCCOC)cc1 | 0.923 |
| Cc1cn(CCN2CCN(c3ccccc3-c3cc(C#N)cc(C(=O)NCCCN4CCCC4)c3)CC2)c2ccccc12 | -6 |
| C[C@H](NC(=O)CNC(=O)c1cccc(Cl)c1)c1ccccc1 | 0.953 |

Study 3
Organism: Sarcocystis neurona
Read-out: parasite growth
Concentration: 10 µM
Time: 96 h
Notes: second screen
Baseline: untreated
| SMILES | log2 fold change |
| --- | --- |
| CC(C)NCC(O)c1ccc(NS(C)(=O)=O)cc1 (centres unmarked) | 0.07 |
| OCCN1CCN(CCCN2c3ccccc3Sc3ccc(C(F)(F)F)cc32)CC1 | -2.69 |
| COCc1c(C(C)C)nc(C(C)C)c(/C=C/[C@@H](O)C[C@@H](O)CC(=O)O)c1-c1ccc(F)cc1 | -0.54 |
| CC(C[N+](C)(C)C)OC(N)=O (centres unmarked) | 0.21 |
| CCC1(c2ccccc2)C(=O)NCNC1=O | 0.36 |
| NC1CCN(c2nc3c(cc2F)c(=O)c(C(=O)O)cn3-c2ccc(F)cc2F)C1 (centres unmarked) | 0.00199 |
| Cc1[nH]c(=O)c(C#N)cc1-c1ccncc1 | 0.45 |

Study 4
Target: MAP/microtubule affinity-regulating kinase 3 (MARK3, Homo sapiens, UniProt P27448)
Chain of UniProt P27448 (whole entry, looked up): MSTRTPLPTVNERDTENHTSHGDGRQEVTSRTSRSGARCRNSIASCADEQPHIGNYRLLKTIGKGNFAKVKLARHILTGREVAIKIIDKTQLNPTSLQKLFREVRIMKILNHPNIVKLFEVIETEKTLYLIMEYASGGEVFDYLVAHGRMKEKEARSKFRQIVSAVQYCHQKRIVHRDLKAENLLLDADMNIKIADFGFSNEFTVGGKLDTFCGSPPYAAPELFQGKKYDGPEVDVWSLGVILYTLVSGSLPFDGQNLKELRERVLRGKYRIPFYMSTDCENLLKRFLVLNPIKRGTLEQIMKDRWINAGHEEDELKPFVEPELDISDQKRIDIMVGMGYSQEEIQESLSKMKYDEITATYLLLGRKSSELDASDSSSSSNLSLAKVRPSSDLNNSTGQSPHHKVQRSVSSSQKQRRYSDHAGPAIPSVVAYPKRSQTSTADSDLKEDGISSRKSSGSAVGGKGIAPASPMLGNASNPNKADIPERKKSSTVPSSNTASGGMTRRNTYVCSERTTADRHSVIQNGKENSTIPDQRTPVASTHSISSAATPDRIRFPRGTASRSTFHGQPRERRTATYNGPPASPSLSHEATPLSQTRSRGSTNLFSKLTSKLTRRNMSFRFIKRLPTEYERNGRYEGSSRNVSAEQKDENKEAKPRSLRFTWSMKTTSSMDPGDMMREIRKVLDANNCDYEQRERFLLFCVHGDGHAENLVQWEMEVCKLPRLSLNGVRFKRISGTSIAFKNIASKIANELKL
Read-out: enzyme activity
Mode: inhibitor
Concentration: 0.5 µM
Baseline: control
| SMILES | remaining activity |
| --- | --- |
| O=C(CCCc1ccc(-c2ccccc2F)cc1)Nc1ccc(O)cc1 | 101% |
| Cc1ccc(Nc2nccc(N(C)c3ccc4c(C)n(C)nc4c3)n2)cc1S(N)(=O)=O | 96.6% |
| Cc1ccc(NC(=O)c2ccc(CN3CCN(C)CC3)cc2)cc1Nc1nc(-c2cccnc2)cs1 | 100% |
| O=c1c2ccccc2[nH]c(=S)n1CCN1CCC(=C(c2ccc(F)cc2)c2ccc(F)cc2)CC1 | 107% |
| Cc1nc(-c2ccccc2)c(-c2ccncc2)o1 | 107% |
| CC(C)[C@H](CO)Nc1nc(Nc2cc(N)cc(Cl)c2)c2ncn(C(C)C)c2n1 | 85.2% |
| Cc1cccc(-c2[nH]c(C(C)(C)C)nc2-c2ccc3c(c2)OCO3)n1 | 73.9% |
| COc1cc2ncnc(Nc3ccc(F)c(Cl)c3)c2cc1OCCCN1CCOCC1 | 94.5% |
| Nc1ncnc2n[nH]c(Nc3ccc(F)cc3)c12 | 92.5% |
| COc1cc2ncnc(Nc3ccc(Oc4ccccc4)cc3)c2cc1OC | 108% |
| N#CC(C#N)=C(N)/C(C#N)=C/c1ccc(O)cc1 | 96.5% |
| Cn1c2ccccc2c2c3c(c4c5ccccc5n(CCC#N)c4c21)CNC3=O | 13.9% |
| OCC(O)CCON=C1C(c2c(O)[nH]c3ccccc23)=Nc2ccccc21 (centres unmarked) | 75.2% |
| Cn1sc(=O)n(Cc2ccccc2)c1=O | 97.1% |
| O=C1NC(=O)C(c2cn(CCCn3ccnc3)c3ccccc23)=C1Nc1ccccc1 | 92.1% |

Excerpt of the above (study 3):
| SMILES | log2 fold change |
| --- | --- |
| CC(C)NCC(O)c1ccc(NS(C)(=O)=O)cc1 (centres unmarked) | 0.07 |
| COCc1c(C(C)C)nc(C(C)C)c(/C=C/[C@@H](O)C[C@@H](O)CC(=O)O)c1-c1ccc(F)cc1 | -0.54 |
| NC1CCN(c2nc3c(cc2F)c(=O)c(C(=O)O)cn3-c2ccc(F)cc2F)C1 (centres unmarked) | 0.00199 |
| Cc1[nH]c(=O)c(C#N)cc1-c1ccncc1 | 0.45 |
